Assay results gathered from unrelated publications.
Lines come from different studies, so protocols differ. Numbers after ± are the reported error.
RPS6KA4: Ribosomal protein S6 kinase alpha-4 (RPS6KA4, Homo sapiens, UniProt O75676)
Sequence of UniProt O75676 (whole entry, looked up): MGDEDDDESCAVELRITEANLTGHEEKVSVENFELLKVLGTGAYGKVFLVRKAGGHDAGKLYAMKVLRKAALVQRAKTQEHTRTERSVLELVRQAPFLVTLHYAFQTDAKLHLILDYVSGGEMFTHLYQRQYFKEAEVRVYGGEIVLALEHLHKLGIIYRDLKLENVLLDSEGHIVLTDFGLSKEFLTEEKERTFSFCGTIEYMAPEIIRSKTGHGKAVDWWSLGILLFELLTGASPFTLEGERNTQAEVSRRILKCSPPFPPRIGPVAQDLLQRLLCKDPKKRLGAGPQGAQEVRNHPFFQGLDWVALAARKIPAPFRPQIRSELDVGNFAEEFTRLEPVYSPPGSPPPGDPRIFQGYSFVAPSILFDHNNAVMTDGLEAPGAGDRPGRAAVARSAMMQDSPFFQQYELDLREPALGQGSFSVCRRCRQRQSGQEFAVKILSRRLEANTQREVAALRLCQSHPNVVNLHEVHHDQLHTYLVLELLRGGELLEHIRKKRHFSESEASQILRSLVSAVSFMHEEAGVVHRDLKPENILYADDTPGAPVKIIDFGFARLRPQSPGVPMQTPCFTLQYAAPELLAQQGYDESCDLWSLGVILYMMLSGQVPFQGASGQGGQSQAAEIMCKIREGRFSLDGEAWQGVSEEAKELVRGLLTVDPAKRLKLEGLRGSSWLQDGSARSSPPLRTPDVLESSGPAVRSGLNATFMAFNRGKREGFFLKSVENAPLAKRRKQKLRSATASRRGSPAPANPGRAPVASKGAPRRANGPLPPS
RPS6KA4 C-terminal kinase domain: Ribosomal protein S6 kinase alpha-4, C-terminal kinase domain (RPS6KA4, Homo sapiens, UniProt O75676)

`CNc1ncc2c(/C=C/C(=O)N3CCC(OC)CC3)nn(Cc3cccc(C(F)(F)F)c3)c2n1` has a remaining activity of 86% (RPS6KA4; kinase activity, inhibitor; 1 µM; reference: untreated control).
`C=CC(=O)N1CCC([C@@H]2CCNc3c(C(N)=O)c(-c4ccc(Oc5ccccc5)cc4)nn32)CC1` gave a remaining activity of 94% (RPS6KA4; kinase activity, inhibitor, HotSpot radiometric; 100 nM, together with: ATP 10 µM).
`CCOc1cc(N2CCN(C)CC2)ccc1Nc1nc(N)n(C(=O)NCc2ccccc2S(=O)(=O)C(C)C)n1` gave a remaining activity of 7.2% (RPS6KA4 C-terminal kinase domain; enzyme activity; 10 µM; reference: control).
With `COc1cc(-c2cncc3c2CN(C)Cc2cc(N4CCNCC4)ccc2-3)cc(OC)c1OC` the remaining activity was 115% (RPS6KA4; kinase activity; 1 µM, human enzyme, together with: ATP 10 µM; reference: DMSO control).
`C=CC(=O)N1CCC(COCC(=O)N2CCN(c3nc(-c4cnc(N)nc4C(F)F)nc(N4CCOC[C@@H]4C)n3)CC2)CC1` has a remaining binding of 100% (RPS6KA4 C-terminal kinase domain; KINOMEscan; 1 µM).
`COc1ccc(F)cc1C(=O)NCc1ccc(-c2nn([C@@H](C)C(F)(F)F)c(N)c2C(N)=O)cc1` has a remaining activity of 77.7 ± 0.1% (RPS6KA4; kinase activity, inhibitor, HotSpot radiometric; 100 nM, together with: ATP 10 µM).
The remaining activity of `COc1cc(N2CCN(C)CC2)ccc1Nc1nc(N)n(C(=O)NCc2ccccc2S(=O)(=O)C(C)C)n1` is reported as 1.9% (RPS6KA4 C-terminal kinase domain; enzyme activity; 10 µM; reference: control).
For `CC#CC(=O)N1CCC[C@H]1c1nc(-c2ccc(C(=O)Nc3ccccn3)cc2)c2c(N)nccn12`, the remaining activity was 95 ± 1.3% (RPS6KA4; kinase activity, inhibitor, HotSpot radiometric; 100 nM, together with: ATP 10 µM).
`COc1cc(N2CCN(C)CC2)ccc1Nc1nc(N)n(C(=S)NCc2c(Cl)cccc2Cl)n1` gave a remaining activity of 0.1% (RPS6KA4 C-terminal kinase domain; enzyme activity; 10 µM; reference: control).
The remaining activity of `COc1cc(F)ccc1-c1ncnc(Nc2cccc(C[S@](C)(=N)=O)c2)n1` is reported as 95% (RPS6KA4; kinase activity; 10 µM, together with: 10 µM ATP).
The remaining activity of `Cc1cc(Nc2cc(N3CCN(C)CC3)nc(Sc3ccc(NC(=O)C4CC4)cc3)n2)[nH]n1` is reported as 104% (RPS6KA4; kinase activity, KinaseProfiler; 0.03 µM, species human; reference: control).

Some of these lines once more:
`C=CC(=O)N1CCC([C@@H]2CCNc3c(C(N)=O)c(-c4ccc(Oc5ccccc5)cc4)nn32)CC1` gave a remaining activity of 94% (RPS6KA4; kinase activity, inhibitor, HotSpot radiometric; 100 nM, together with: ATP 10 µM).
